{"data": "Measurements gathered from unrelated publications", "note": "Parts stem from different laboratories: compare values within a part only. Values joined by “and” are separate records of one study, mostly repeats; a detail may differ.", "sequence of UniProt P07948 (whole entry, looked up)": "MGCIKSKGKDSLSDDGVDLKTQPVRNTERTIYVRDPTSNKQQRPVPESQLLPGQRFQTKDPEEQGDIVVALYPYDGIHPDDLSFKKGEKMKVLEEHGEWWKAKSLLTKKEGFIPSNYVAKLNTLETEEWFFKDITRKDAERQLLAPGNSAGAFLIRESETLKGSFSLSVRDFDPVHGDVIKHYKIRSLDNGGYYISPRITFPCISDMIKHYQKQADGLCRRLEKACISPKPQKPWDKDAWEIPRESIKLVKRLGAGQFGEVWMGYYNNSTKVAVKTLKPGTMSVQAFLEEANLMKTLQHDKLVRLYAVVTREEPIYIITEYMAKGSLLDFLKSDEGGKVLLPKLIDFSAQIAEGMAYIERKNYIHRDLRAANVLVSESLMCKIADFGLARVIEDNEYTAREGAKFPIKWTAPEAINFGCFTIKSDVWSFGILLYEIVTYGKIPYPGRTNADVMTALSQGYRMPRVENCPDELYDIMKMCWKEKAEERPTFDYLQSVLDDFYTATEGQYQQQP", "sequence of UniProt O94921 (whole entry, looked up)": "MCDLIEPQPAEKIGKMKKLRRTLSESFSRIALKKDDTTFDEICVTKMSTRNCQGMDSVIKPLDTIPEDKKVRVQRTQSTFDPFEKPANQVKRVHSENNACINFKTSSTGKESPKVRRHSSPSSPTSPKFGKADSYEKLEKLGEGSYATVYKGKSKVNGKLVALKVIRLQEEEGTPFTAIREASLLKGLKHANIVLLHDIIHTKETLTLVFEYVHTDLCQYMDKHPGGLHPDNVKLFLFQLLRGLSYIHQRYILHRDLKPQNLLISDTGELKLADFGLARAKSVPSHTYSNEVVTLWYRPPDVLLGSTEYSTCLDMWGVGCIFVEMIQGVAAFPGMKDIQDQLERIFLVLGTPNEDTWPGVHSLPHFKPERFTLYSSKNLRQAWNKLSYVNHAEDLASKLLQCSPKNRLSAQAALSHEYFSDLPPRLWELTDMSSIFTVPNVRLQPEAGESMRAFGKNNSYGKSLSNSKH", "sequence of UniProt P42680 (whole entry, looked up)": "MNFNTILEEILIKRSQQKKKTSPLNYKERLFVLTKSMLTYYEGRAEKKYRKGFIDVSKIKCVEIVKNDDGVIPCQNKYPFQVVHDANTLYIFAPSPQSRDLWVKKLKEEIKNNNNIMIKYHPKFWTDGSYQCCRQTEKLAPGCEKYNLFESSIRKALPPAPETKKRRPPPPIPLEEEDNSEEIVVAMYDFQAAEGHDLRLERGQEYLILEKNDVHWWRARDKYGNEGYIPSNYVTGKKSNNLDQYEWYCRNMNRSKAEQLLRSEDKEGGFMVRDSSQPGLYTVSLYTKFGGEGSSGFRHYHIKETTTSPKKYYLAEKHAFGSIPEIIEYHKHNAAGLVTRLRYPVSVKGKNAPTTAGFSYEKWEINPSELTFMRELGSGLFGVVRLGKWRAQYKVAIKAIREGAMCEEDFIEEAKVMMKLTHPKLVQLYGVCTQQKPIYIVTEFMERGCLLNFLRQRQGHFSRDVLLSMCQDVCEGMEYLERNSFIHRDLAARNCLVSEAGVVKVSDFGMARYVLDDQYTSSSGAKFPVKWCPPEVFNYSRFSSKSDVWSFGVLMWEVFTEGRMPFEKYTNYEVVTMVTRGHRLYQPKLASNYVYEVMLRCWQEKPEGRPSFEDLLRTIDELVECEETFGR", "sequence of UniProt Q14012 (whole entry, looked up)": "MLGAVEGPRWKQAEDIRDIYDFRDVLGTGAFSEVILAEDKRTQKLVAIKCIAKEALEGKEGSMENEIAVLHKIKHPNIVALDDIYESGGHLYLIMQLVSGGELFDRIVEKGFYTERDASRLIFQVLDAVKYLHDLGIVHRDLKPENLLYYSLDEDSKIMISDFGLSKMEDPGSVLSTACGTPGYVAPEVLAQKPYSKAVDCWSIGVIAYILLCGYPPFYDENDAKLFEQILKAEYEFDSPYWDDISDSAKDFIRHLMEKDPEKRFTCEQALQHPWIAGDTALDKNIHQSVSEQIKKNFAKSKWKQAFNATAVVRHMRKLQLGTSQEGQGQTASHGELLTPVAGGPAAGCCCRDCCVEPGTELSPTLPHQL", "sequence of UniProt O75460 (whole entry, looked up)": "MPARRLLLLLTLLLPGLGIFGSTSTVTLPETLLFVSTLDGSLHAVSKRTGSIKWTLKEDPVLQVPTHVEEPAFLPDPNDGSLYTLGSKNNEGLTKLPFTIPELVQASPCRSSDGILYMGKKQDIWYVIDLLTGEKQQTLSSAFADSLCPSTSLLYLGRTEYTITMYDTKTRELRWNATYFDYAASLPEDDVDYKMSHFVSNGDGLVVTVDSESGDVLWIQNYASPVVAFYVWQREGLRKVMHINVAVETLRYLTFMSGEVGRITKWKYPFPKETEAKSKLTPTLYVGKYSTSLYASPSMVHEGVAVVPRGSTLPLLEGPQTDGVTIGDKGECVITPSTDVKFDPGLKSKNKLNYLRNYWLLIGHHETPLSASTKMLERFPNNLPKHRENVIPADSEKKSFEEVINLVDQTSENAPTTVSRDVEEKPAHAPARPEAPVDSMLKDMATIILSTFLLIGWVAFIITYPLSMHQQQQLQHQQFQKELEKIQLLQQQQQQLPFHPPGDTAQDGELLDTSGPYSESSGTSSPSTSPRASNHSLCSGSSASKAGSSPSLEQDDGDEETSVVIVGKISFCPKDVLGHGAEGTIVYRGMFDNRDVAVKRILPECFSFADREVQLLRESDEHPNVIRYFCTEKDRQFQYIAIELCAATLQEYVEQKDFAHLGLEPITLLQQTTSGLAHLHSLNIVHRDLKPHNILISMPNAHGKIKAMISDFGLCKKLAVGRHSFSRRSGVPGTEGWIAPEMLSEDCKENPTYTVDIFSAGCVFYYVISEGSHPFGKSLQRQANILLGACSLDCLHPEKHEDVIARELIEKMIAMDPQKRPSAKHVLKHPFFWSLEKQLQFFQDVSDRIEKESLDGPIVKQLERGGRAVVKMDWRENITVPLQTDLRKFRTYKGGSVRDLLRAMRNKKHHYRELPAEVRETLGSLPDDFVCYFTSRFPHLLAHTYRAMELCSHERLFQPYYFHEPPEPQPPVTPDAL", "sequence of UniProt Q8IW41 (whole entry, looked up)": "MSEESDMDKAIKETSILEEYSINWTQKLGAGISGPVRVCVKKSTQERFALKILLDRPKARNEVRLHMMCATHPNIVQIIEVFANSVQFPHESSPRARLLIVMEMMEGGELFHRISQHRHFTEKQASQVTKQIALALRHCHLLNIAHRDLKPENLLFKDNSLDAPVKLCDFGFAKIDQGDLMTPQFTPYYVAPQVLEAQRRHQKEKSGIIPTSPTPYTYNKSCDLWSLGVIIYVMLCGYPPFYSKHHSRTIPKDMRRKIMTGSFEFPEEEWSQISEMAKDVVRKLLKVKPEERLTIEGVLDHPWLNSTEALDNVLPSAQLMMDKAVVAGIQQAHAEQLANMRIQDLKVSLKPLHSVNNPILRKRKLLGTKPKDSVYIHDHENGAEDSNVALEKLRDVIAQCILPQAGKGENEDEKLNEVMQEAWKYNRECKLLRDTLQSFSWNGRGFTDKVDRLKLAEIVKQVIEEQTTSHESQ", "sequence of UniProt Q86Y07 (whole entry, looked up)": "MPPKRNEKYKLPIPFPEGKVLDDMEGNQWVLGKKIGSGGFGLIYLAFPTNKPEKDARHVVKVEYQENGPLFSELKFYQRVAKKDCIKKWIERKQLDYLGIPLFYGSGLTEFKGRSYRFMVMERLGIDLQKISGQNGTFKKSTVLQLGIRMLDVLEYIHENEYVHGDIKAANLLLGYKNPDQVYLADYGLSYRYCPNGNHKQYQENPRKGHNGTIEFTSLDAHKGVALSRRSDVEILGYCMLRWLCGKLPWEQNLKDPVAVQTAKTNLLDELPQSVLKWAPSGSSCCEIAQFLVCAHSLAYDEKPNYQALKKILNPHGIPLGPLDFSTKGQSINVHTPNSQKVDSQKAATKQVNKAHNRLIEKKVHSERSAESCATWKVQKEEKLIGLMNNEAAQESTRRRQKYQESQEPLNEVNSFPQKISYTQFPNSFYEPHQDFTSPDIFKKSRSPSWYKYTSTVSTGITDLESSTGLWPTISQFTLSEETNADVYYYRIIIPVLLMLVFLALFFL", "sequence of UniProt O43293 (whole entry, looked up)": "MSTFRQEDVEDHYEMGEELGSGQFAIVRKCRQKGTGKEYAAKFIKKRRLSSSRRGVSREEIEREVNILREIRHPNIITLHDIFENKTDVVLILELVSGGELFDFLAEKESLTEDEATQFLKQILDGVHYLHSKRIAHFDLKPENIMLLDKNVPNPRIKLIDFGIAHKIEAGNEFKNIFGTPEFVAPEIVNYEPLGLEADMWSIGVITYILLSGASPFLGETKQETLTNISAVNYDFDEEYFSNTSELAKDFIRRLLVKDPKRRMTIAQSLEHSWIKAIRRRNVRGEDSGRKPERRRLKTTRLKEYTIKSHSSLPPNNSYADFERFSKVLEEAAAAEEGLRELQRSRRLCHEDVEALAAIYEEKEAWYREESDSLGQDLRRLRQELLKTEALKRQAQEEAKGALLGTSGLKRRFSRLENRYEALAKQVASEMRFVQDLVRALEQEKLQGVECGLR"}
{"data": "Series 1", "Compound": "O=C(Nc1cnn(-c2csc(C(=O)NC3COC3)c2)c1)Nc1ccccc1Cl", "tested at": "5 µM"}
{"target": "Tyrosine-protein kinase Lyn, isoform B (LYN, Homo sapiens, UniProt P07948)", "observed": "kinase activity", "method": "kinase panel profiling", "remaining activity": "93.1%"}
{"target": "CSNK1A1L (Homo sapiens, UniProt Q8N752)", "observed": "enzyme activity", "baseline": "untreated control", "remaining activity": "106%"}
{"target": "FGR (Homo sapiens, UniProt P09769)", "observed": "enzyme activity", "baseline": "untreated control", "remaining activity": "89.2%"}
{"target": "STK4 (Homo sapiens, UniProt Q13043)", "observed": "enzyme activity", "baseline": "untreated control", "remaining activity": "94.5%"}
{"target": "YES1 (Homo sapiens, UniProt P07947)", "observed": "enzyme activity", "baseline": "untreated control", "remaining activity": "91.5%"}
{"target": "HIPK4 (Homo sapiens, UniProt Q8NE63)", "observed": "enzyme activity", "baseline": "untreated control", "remaining activity": "97.2%"}
{"target": "ERN1 (Homo sapiens, UniProt O75460)", "observed": "enzyme activity", "baseline": "untreated control", "remaining activity": "93.9%"}
{"target": "CAMK2D (Homo sapiens, UniProt Q13557)", "observed": "enzyme activity", "baseline": "untreated control", "remaining activity": "102%"}
{"data": "Series 2", "SMILES": "COc1cccc(CNC(=O)c2nc3scc(COCc4ccc(C(=O)O)cc4)c3c(=O)[nH]2)c1", "tested at": "1 µM"}
{"target": "CAMK1 (Homo sapiens, UniProt Q14012)", "observed": "cell-free assay", "method": "competition with immobilised ligand", "remaining binding [%]": 88.2}
{"target": "TNNI3K (Homo sapiens, UniProt Q59H18)", "observed": "cell-free assay", "method": "competition with immobilised ligand", "remaining binding [%]": 95.5}
{"target": "FLT1 (Homo sapiens, UniProt P17948)", "observed": "cell-free assay", "method": "competition with immobilised ligand", "remaining binding [%]": 93.9}
{"target": "GAK (Homo sapiens, UniProt O14976)", "observed": "cell-free assay", "method": "competition with immobilised ligand", "remaining binding [%]": 99.6}
{"target": "CDK14 (Homo sapiens, UniProt O94921)", "observed": "cell-free assay", "method": "competition with immobilised ligand", "remaining binding [%]": 100}
{"target": "TEC (Homo sapiens, UniProt P42680)", "observed": "cell-free assay", "method": "competition with immobilised ligand", "remaining binding [%]": 86}
{"target": "RET (Homo sapiens, UniProt P07949, M918T)", "observed": "cell-free assay", "method": "competition with immobilised ligand", "remaining binding [%]": 89.5}
{"target": "RIOK3 (Homo sapiens, UniProt O14730)", "observed": "cell-free assay", "method": "competition with immobilised ligand", "remaining binding [%]": 63.2}
{"target": "EPHB2 (Homo sapiens, UniProt P29323)", "observed": "cell-free assay", "method": "competition with immobilised ligand", "remaining binding [%]": 95.7}
{"target": "NEK6 (Homo sapiens, UniProt Q9HC98)", "observed": "cell-free assay", "method": "competition with immobilised ligand", "remaining binding [%]": 71}
{"target": "SGK2 (Homo sapiens, UniProt Q9HBY8)", "observed": "cell-free assay", "method": "competition with immobilised ligand", "remaining binding [%]": 84.9}
{"target": "DCLK2 (Homo sapiens, UniProt Q8N568)", "observed": "cell-free assay", "method": "competition with immobilised ligand", "remaining binding [%]": 100}
{"target": "VRK2 (Homo sapiens, UniProt Q86Y07)", "observed": "cell-free assay", "method": "competition with immobilised ligand", "remaining binding [%]": 74.2}
{"target": "IRAK3 (Homo sapiens, UniProt Q9Y616)", "observed": "cell-free assay", "method": "competition with immobilised ligand", "remaining binding [%]": 97.5}
{"target": "LYN (Homo sapiens, UniProt P07948)", "observed": "cell-free assay", "method": "competition with immobilised ligand", "remaining binding [%]": 93.7}
{"target": "Ribosomal protein S6 kinase alpha-3, C-terminal kinase domain (RPS6KA3, Homo sapiens, UniProt P51812)", "observed": "cell-free assay", "method": "competition with immobilised ligand", "remaining binding [%]": 56.5}
{"target": "STK32A (Homo sapiens, UniProt Q8WU08)", "observed": "cell-free assay", "method": "competition with immobilised ligand", "remaining binding [%]": 100}
{"target": "MAPKAPK2 (Homo sapiens, UniProt P49137)", "observed": "cell-free assay", "method": "competition with immobilised ligand", "remaining binding [%]": 64.3}
{"target": "DAPK3 (Homo sapiens, UniProt O43293)", "observed": "cell-free assay", "method": "competition with immobilised ligand", "remaining binding [%]": 92.2}
{"target": "MKNK1 (Homo sapiens, UniProt Q9BUB5)", "observed": "cell-free assay", "method": "competition with immobilised ligand", "remaining binding [%]": 83.1}
{"target": "CSNK1E (Homo sapiens, UniProt P49674)", "observed": "cell-free assay", "method": "competition with immobilised ligand", "remaining binding [%]": 100}
{"target": "MAPKAPK5 (Homo sapiens, UniProt Q8IW41)", "observed": "cell-free assay", "method": "competition with immobilised ligand", "remaining binding [%]": 93.8}
{"target": "SIK1 (Homo sapiens, UniProt P57059)", "method": "competition binding", "remaining binding [%]": 100}
{"target": "EPHA1 (Homo sapiens, UniProt P21709)", "observed": "cell-free assay", "method": "competition with immobilised ligand", "remaining binding [%]": 79.9}
{"target": "INSRR (Homo sapiens, UniProt P14616)", "observed": "cell-free assay", "method": "competition with immobilised ligand", "remaining binding [%]": 100}
{"data": "Series 3", "target": "Calcium/calmodulin-dependent protein kinase type II subunit alpha (CAMK2A, Homo sapiens, UniProt Q9UQM7)", "observed": "enzyme activity", "action": "inhibitor", "tested at": "10 µM", "sequence of UniProt Q9UQM7 (whole entry, looked up)": "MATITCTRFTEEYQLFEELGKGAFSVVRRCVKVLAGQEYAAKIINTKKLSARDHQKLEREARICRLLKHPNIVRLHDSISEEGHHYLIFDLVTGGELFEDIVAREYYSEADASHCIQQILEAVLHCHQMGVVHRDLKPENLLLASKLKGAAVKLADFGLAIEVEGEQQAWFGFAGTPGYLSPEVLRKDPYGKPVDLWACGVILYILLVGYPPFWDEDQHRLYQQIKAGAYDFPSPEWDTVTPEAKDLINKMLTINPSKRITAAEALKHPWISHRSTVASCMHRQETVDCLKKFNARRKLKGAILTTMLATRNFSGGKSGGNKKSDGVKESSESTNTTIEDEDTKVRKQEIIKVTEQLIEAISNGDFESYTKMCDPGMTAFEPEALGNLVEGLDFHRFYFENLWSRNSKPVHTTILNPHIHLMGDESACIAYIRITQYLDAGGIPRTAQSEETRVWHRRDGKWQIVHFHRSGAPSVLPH"}
{"Structure (SMILES)": "O=C(CCCN1CC=C(n2c(=O)[nH]c3ccccc32)CC1)c1ccc(F)cc1", "inhibition [%]": -10}
{"Structure (SMILES)": "C[C@H](CCC(=O)O)[C@H]1CC[C@H]2[C@@H]3CC[C@@H]4C[C@H](O)CC[C@]4(C)[C@H]3CC(=O)[C@]12C", "inhibition [%]": -10}
{"Structure (SMILES)": "CCOC(=O)/C=C/c1ccc(O)c(OC)c1", "inhibition [%]": 11}
{"Structure (SMILES)": "COc1ccc(-c2cc(=S)ss2)cc1", "inhibition [%]": 2}
{"Structure (SMILES)": "O=C1c2c(O)cc(O)cc2O[C@H](c2ccc(O)cc2)[C@H]1O", "inhibition [%]": 14}
{"Structure (SMILES)": "Cc1ccc(/C(=C\\CN2CCCC2)c2ccccn2)cc1", "inhibition [%]": -4}
{"Structure (SMILES)": "O=C(CCC/C=C\\C[C@@H]1[C@@H](CC[C@@H](O)CCc2ccccc2)[C@H](O)C[C@@H]1O)OCCCCO[N+](=O)[O-]", "inhibition [%]": -5}
{"data": "Series 4", "cell line": "mouse MPNST tumor cells", "method": "high-content nuclear imaging", "refers to": "cell number", "tested at": "10 µM", "time": "12 h", "setting": "mean of 2 replicates", "baseline": "plate mean", "reading": "higher = more cells"}
{"Structure (SMILES)": "O=C(/C=C/c1ccccc1)NC(NC(=S)Nc1cccc2cccnc12)C(Cl)(Cl)Cl (stereo not drawn)", "nuclei count": "0.746 z-score"}
{"Structure (SMILES)": "NS(=O)(=O)c1cc(Cl)c(Cl)c(S(N)(=O)=O)c1", "nuclei count": "0.532 z-score and 0.977 z-score"}
{"Structure (SMILES)": "CCN1CCN(c2ccc(C(C)(C)NC(=O)c3cc4[nH]c5ccccc5c(=O)c4cc3F)cn2)CC1", "nuclei count": "-4.47 z-score"}
{"Structure (SMILES)": "Cc1cc(CN)cc(C)c1-c1ncn(C)c1-c1ccnc2cc(F)ccc12", "nuclei count": "4.23 z-score"}
{"Structure (SMILES)": "CC(C)(S)C(N)C(=O)O (racemic)", "nuclei count": "1.04 z-score"}
{"data": "Series 5", "species": "mouse", "medium": "microsomes or S9", "tested at": "2 µM", "time": "0.5 h"}
{"Structure (SMILES)": "CCOC(=O)c1ccc(NC2C=CC(=O)C2Nc2ccc(C(=O)OCC)cc2)cc1 (stereo not drawn)", "remaining compound": "0.913%"}
{"Structure (SMILES)": "COc1cc(=O)[nH]cc1C(=O)N1Cc2ccccc2OC(C)(C)C1", "remaining compound": "75.5%"}
{"Structure (SMILES)": "CN1CCN(C(=O)c2ccc(-c3ccc4nnc(Cc5cccc6c(=O)[nH]ccc56)n4n3)cc2)CC1", "remaining compound": "0%"}
{"Structure (SMILES)": "CCn1nc(C)c(C2CC(=O)Nc3nc(N4CCCCC4)nc(O)c32)c1C (stereo not drawn)", "remaining compound": "> 99.9%"}
{"Structure (SMILES)": "CCCNS(=O)(=O)c1nc2nc(C)cc(C)n2n1", "remaining compound": "47.5%"}
{"Structure (SMILES)": "Cc1ccc(OCCN2CCOCC2)c(NC(=O)c2cc3cc(C)ccc3n2C)c1", "remaining compound": "0.258%"}
{"Structure (SMILES)": "CCOC(=O)c1ccccc1NS(=O)(=O)CC", "remaining compound": "82.3%"}
{"Structure (SMILES)": "CN1CCC(NS(=O)(=O)c2cc(Cl)ccc2Cl)CC1", "remaining compound": "98.8%"}
{"data": "Single results of other studies"}
{"SMILES": "C=CCc1ccc(O)c(-c2ccc(O)c(CC=C)c2)c1", "target": "Anoctamin-1 (ANO1, Homo sapiens, UniProt Q5XXA6, del476-501)", "test": "chloride current, inhibitor, whole-cell voltage clamp", "conditions": "wild type at -100 mV, with: 10 µM magnolol", "how to read": "baseline: with over without magnolol", "measurement": "potency fold increase", "result": 2.79}
{"note": "Excerpt of the above (series 2):"}
{"target": "SGK2 (Homo sapiens, UniProt Q9HBY8)", "observed": "cell-free assay", "method": "competition with immobilised ligand", "remaining binding [%]": 84.9}
{"target": "DCLK2 (Homo sapiens, UniProt Q8N568)", "observed": "cell-free assay", "method": "competition with immobilised ligand", "remaining binding [%]": 100}
{"target": "VRK2 (Homo sapiens, UniProt Q86Y07)", "observed": "cell-free assay", "method": "competition with immobilised ligand", "remaining binding [%]": 74.2}
{"target": "IRAK3 (Homo sapiens, UniProt Q9Y616)", "observed": "cell-free assay", "method": "competition with immobilised ligand", "remaining binding [%]": 97.5}
{"target": "LYN (Homo sapiens, UniProt P07948)", "observed": "cell-free assay", "method": "competition with immobilised ligand", "remaining binding [%]": 93.7}
{"target": "Ribosomal protein S6 kinase alpha-3, C-terminal kinase domain (RPS6KA3, Homo sapiens, UniProt P51812)", "observed": "cell-free assay", "method": "competition with immobilised ligand", "remaining binding [%]": 56.5}
